Assay results collected from several papers.
Numbered parts are unrelated; each lists some results of a single study. Changes are numbered by the printed parent chain.

Block 1
Target: Interferon regulatory factor 5, full length, phosphomimetic (IRF5, Homo sapiens, UniProt Q13568-2, residues 1-514, S451D/S453D/S456D/S462D)
Method: protein-binding microarray
Molecule type: double-stranded DNA, one strand shown
Matrix: in vitro
Concentration: 940 nM top
Notes: 60-bp whole probe
Added: salmon DNA 0.4 mg/ml
Baseline: random background probes
Reading: higher = stronger binding
Shared flanks, not repeated: GCCTAGCAC … GTCTTGATTCGCTTGACGCTGCTG
| Oligonucleotide | fitted relative affinity [z-score] |
| --- | --- |
| GACGGACTGCTACTGTTGACGTGCTAG | -0.509 |
| CTACTTCTGTTTTTGCTTTCGTGCTAG | 2.09 |
| GACGGTTTCGCGACTGGGGACGTGCTA | 2.55 |
| TCACTTCTGGTGCTCATCTGGTGCTAG | 0.386 |
| CGAGGTCTCGCTATGTTGTCGTGCTAG | 1.06 |
| GACAGTATCGACTATCGGGACGTGCTA | 5.01 |
| TTAGGATTCCTTTCCCTTTAGTGCTAG | 0.173 |
| GACGATTTCTGTTTCGAGACGTGCTAG | 2.67 |
| GACGGTATCGGGTATCGCGACGTGCTA | 5.78 |
| GACGCTTTCGGACTGGGGACGTGCTAG | 1.75 |
| AGTGGCCCAGGGCATCCCCTGTGCTAG | -0.973 |
| GACGGACTGCTTTTCCCGACGTGCTAG | 0.0706 |
| TCACCTTTGCTTTCCTGACTGTGCTAG | 1.02 |
| GACGGACTGGACACGGGGGACGTGCTA | -0.137 |
| CCTTGCATGTTTTTGACAAAGTGCTAG | 0.172 |
| GACGGTATCGGTAACGGGACGTGCTAG | 7.04 |
| TTAGGTATCGGGCCTGGGTTAGTGCTA | 3.9 |
| GTGGTTCTGCTTCTTAGCGCGTGCTAG | 0.327 |
| TTGAATCTCCCATTATATTTGTGCTAG | 0.798 |
| GACGATATCGCGTATCGAGACGTGCTA | 0.349 |
| ACCACTTTTATTTTCAGTATGTGCTAG | 1.69 |
| GACGAACTGAGTAGCGAGACGTGCTAG | -0.508 |

Block 2
Target: RNA binding protein fox-1 homolog 2, RRM domain, GST-SBP tag (RBFOX2, Homo sapiens, UniProt O43251-10, residues 100-194)
Method: RNA Bind-n-Seq
Molecule type: RNA
Matrix: in vitro
Concentration: 365 nM
Notes: natural RNA segment, single round, ends assumed
Baseline: no-protein control
Reading: higher = stronger binding
Residues (chain): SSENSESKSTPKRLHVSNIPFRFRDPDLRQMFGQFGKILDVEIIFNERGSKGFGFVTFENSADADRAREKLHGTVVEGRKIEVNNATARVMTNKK
| Oligonucleotide | RBNS enrichment (R) |
| --- | --- |
| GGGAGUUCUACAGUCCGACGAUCGCCAUCCCCUGCCCACCAUUGCCGUGGAGGGGGCUGCCAGGCAUAGCUGCUGUGAGCCAUGUCCUUGUGUGUGUCUGUUCACUCUUAGGAGCCACGCCCAAGGCGAGACUUGGAAUUCUCGGGUGCCAA | 0.328 |
| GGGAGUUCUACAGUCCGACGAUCGCUUUUCCUUUUAGGUUUAAGUCCUGUCUGUCUGUAAGGCGUAGAAUCUGUCCGUCUGUAAGGCGUAGAAUGAGGGUUGUUAAUCCAUCACAAGCAAAAGGUCAGAACAGUGGAAUUCUCGGGUGCCAA | 0.89 |
| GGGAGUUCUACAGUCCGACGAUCCUUUUAAAUCUGUAUGUAAAAUCUUUUCAAAAUACAUUUUUAAGCUAAUACUCUUAACAUAGAUUAUGAAGUUAAGUGAAAUUUAUGGCUCUAACAGCAAAAUAAUUAAAUGGAAUUCUCGGGUGCCAA | 7.43 |
| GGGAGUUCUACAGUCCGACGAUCCAAAGCCCUGCCAGCAAGGGGAUGGCACCACUGGAGCUCUUGCCAAAUCACUCUCAGCCCUGUAUUUGGUACCGGUGUGUCCCAGGUCAAUGUACAGAACUGCAGCCAAGUGGAAUUCUCGGGUGCCAA | 0.505 |
| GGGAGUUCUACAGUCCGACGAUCAUUUAAAGCUAUGAAGUCACCUGGAGAAAAGGAACGUUGCUCUUGGACAGCAAGCAAACCAUUUCUCUCCGUCUGUUCUGUUUUUCUCCUAGUCCCUCUCCUGCCACCUCUGGAAUUCUCGGGUGCCAA | 0.643 |
| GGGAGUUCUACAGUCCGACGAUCAUGAUCUGUUGUCUGGAGUAUAUGCUACAUGUUCAUUUACUGUACAAAAACCCAGUGCAGCUGAUGAUGCAAAGCAGUCUCUCUCUGUGUACAGUGCCCCACCUAUUUAAUGGAAUUCUCGGGUGCCAA | 0.351 |
| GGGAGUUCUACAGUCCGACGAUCCAUUUUCACUAAGAGUUUAAAAGCUAUUGUAUUAUUAAAAAGUCUUUACAAUGCUUGUUUCAAAGAACCAACAGAAAAAAAAGCUAAGAAAACUGAGAACUAACAUUAAAUGGAAUUCUCGGGUGCCAA | 0.404 |
| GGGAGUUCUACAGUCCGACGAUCAUGAGGGGUAGCCUCCCACUGCAUCCCAUCCUGAAUAUCCUUUGCAACUCCCCAAGAGUGCUUAUUUAAGUGUUAAUACUUUUAAGAGAACUGCGACGAUUAAUUGUGGAUGGAAUUCUCGGGUGCCAA | 1.27 |
| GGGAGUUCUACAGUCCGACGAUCCUCCCGUUUGUACCUCAACAGAUGCAAAUUCCCCUCUCGUUCACCCUACGCCCUUUUUGGUACACUUAGAAGUUUUCCUUUUCCAUCAAUGGUACUGUUUCUUAGUGUUUUGGAAUUCUCGGGUGCCAA | 0.706 |
| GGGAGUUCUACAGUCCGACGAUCGUUUAAGCAUUCUUGUUGCAUUGUCUCUGCAGAUUCUAUUUUUGUUUACAAUAUUAAAAUGUAUGUUAGCAAAAUGGGUGGAUUUUCAAAUAAAAUGCAGCUUCCACAAAUGGAAUUCUCGGGUGCCAA | 0.538 |
| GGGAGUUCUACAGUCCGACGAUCUAGGAGAAAUAUAAAUACAGUAAGUUUAGAUUAUUGAAUUGGUGCUUGAAAUUUAUUGGUUUUGUUGUAAUUUUAUACAGAUUAUAUGAGGGAUAAGAUACUCAUCAAAUUGGAAUUCUCGGGUGCCAA | 1.51 |
| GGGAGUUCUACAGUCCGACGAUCCUAGAGAGUUUGAGGAUUGCUUUUUAAAAAAGACAGCAAACUUUUUUUUUUAUUUAAAAAAAGAUAUAUUAACAGUUUUAGAAGUCAGUAGAAUAAAAUCUUAAAGCACUUGGAAUUCUCGGGUGCCAA | 0.538 |

Block 3
Target: Histone acetyltransferase KAT6A, winged helix 2, GST fusion (KAT6A, Homo sapiens, UniProt Q92794, residues 85-181)
Method: protein binding microarray
Molecule type: double-stranded DNA, one strand shown
Matrix: in vitro
Concentration: not given
Notes: 8-mer, flanks averaged, mean of 2 arrays, mostly near background
Baseline: not given
Reading: higher = stronger binding
Construct (chain): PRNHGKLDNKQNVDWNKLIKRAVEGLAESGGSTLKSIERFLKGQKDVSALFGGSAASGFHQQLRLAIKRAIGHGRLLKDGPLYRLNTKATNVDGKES
| Oligonucleotide | E-score |
| --- | --- |
| CATACCTA | -0.123 |
| TGCAGTAA | -0.211 |
| ACTACGCC | -0.075 |
| AATGACGG | -0.103 |
| CTGCGCGC | 0.202 |
| GCTACGAA | -0.0309 |
| GGCGCATA | -0.0716 |
| CCTGCCTA | 0.136 |
| ACCTATTA | -0.166 |
| CAAGCTCA | -0.0344 |
| CGGCGGAA | 0.116 |
| CACAACCA | 0.0539 |
| AGGGCCTG | 0.0658 |
| AGTATTAC | -0.0235 |
| AGCGTGTC | -0.0309 |
| GTAACAGA | -0.0235 |
| AAGAATGA | -0.0951 |
| CCGCAAAC | 0.193 |
| CCTTTGTA | -0.0604 |
| CTGCCAAG | -0.113 |
| CTAATGGA | -0.0952 |
| CCATCGCG | 0.213 |
| GGGCCCCC | 0.161 |
| CGTCGTGC | 0.0821 |
| TCACTGGA | 0.0511 |

Block 4
Target: ABI1, truncated, D143A, DHFR fusion (Arabidopsis thaliana)
Method: DHFR PCA, deep sequencing
Matrix: yeast
Notes: methotrexate growth selection, single substitutions
Added: (+)-ABA 0.032 µM
Baseline: wild-type fitted maximum
Reading: higher = stronger binding
Starting sequence: PYL1, truncated, DHFR fusion (Arabidopsis thaliana); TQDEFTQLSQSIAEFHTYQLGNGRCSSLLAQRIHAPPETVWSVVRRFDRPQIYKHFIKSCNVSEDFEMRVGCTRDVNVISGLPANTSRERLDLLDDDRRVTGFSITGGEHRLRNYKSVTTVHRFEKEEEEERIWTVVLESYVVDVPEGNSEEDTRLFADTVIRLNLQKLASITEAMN
| Change | relative binding score [%] |
| --- | --- |
| L82C | 15.8 |
| E130L | 12.7 |
| E67V | 37.4 |
| H34C | 35.7 |
| S59D | 24.1 |
| V142I | 20.4 |
| E152P | -9.69 |
| T86G | 3.12 |
| V121P | 0.465 |
| D97N | 24.5 |
| V40S | 6.8 |
| I172C | -6.05 |
| R113T | 15 |
| Q7Y | 24.6 |
| H122Y | 5.2 |
| H55E | 16.4 |
| R113V | 33.6 |
| A30M | 34 |

Block 5
Target: PABPC1L2, full length, GST fusion (mouse, UniProt A0ABA7IW68)
Method: RNAcompete
Molecule type: RNA
Matrix: in vitro
Concentration: 20 nM
Notes: 7-mer, probes averaged, single round
Baseline: mean of 7-mers
Reading: higher = stronger binding
Residues (chain): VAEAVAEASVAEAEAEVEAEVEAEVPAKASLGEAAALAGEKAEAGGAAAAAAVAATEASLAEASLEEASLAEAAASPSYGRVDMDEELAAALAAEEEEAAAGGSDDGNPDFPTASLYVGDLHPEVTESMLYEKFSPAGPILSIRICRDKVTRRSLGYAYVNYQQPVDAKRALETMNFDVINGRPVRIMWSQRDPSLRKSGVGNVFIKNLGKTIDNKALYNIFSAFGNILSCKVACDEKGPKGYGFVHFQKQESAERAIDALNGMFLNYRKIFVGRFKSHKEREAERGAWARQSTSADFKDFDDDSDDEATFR
| Oligonucleotide | 7-mer Z-score |
| --- | --- |
| AUGCUAU | -0.117 |
| AGCGGAC | 0.0823 |
| CACUGGC | -0.0301 |
| UCUGAGA | -0.0772 |
| UGAUUCG | -0.235 |
| GUAGCGU | -0.208 |
| CGUACUC | -0.396 |
| CAUACUG | -0.231 |
| GACCUUA | -0.164 |

Block 6
Target: CCND3, cyclin fold, Cln2 fusion (human)
Method: yeast growth competition, sequencing
Matrix: yeast
Notes: weak parent motif
Baseline: not given
Reading: higher = stronger binding
Starting sequence: RB1 docking peptide (human); PKPLKKLRFDIEG
| Change | normalised enrichment score |
| --- | --- |
| P3M | 0.136 |
| K2G | -0.000259 |
| L7I | 0.0918 |
| F9H | 0.0967 |
| K5W | 0.0904 |
| K6C | 0.0463 |
| R8G | 0.104 |
| E12L | 0.263 |
| I11V | 0.0979 |
| F9Q | 0.2 |
| R8S | 0.0846 |
| K5N | 0.0937 |
| F9K | 0.144 |
| K2N | 0.164 |
| F9S | 0.0178 |
| I11P | 0.116 |
| G13E | 0.102 |
